Measurements from different studies.
Organism: Mycobacterium tuberculosis

| Compound | effect on | method | strain | time | setting | MIC |
| --- | --- | --- | --- | --- | --- | --- |
| CC1=NN(CNc2ccc(C(=O)O)c(O)c2)C(=O)/C1=N/Nn1c(-c2ccccc2)nc2ccccc2c1=O | microbial growth | resazurin | H37RV |  |  | 48.9 µM |
| Cc1ccc(C2OC(c3ccc(C)cc3)C(C)C(=NOCc3cn(-c4ccccc4)nn3)C2C)cc1 (centres unmarked) | microbial growth | resazurin | H37RV |  |  | 6.25 µg/mL |
| CCOC(=O)/C=C1/SC(N/N=C/c2c(-c3ccc(Br)cc3)nc3ncccn23)=NC1=O |  | MABA | H37Rv ATCC 27294 |  |  | 25 µg/mL |
| Cc1ccc(CNC(=O)Cc2c(C)nc3ccc(C)cn23)cc1 |  |  | H37Rv, replicating |  |  | 2 to 4 µM |
| CC1C(=NOCc2cc(-c3ccc(Cl)cc3)no2)C(C)C(c2ccc(Br)cc2)OC1c1ccc(Br)cc1 (centres unmarked) | microbial growth | resazurin | H37RV |  |  | 3.12 µg/mL |
| Cc1c2c([nH]c(=O)c1CNC(=O)c1ccc(C(F)(F)F)nc1)CCCC2 | microbial growth | resazurin | H37RV |  |  | > 50 µg/mL |
| COc1ccc(-c2cc(=O)c3c(O)c(OC)c(O)cc3o2)cc1 | microbial growth |  | ATCC27294 H37RV |  |  | 250 µg/mL |
| CCOC(=O)c1sc(N/N=C/c2c(-c3ccc(Cl)cc3)nc3ncccn23)nc1C |  | MABA | H37Rv ATCC 27294 |  |  | 6.25 µg/mL |
| CCOC(=O)CC[C@@H](NC(=O)c1ccc(N(C)Cc2ccc3[nH]c(C)nc(=O)c3c2)s1)C(=O)OCC |  |  | pptT knockdown with ATc |  |  | 75.7 µM |
| Cc1cccc(-c2nc(Nc3ccncn3)c3sccc3n2)n1 | microbial growth | resazurin | H37RV |  |  | 0.47 µM |
| CCOC(=O)c1sc(N/N=C/c2c(-c3ccc(Br)cc3)nc3ncccn23)nc1C |  | MABA | H37Rv ATCC 27294 |  |  | 6.25 µg/mL |
| COc1ccc(-c2cc(-c3ccc(-n4cccc4)cc3)nc(N)n2)c(OC)c1 | microbial growth | resazurin | H37RV | 7 days |  | 3.12 µg/mL |
| CC(=O)NC1C(OC2OC(CC(O)C3OC(n4ccc(=O)[nH]c4=O)C(O)C3O)C(O)C(O)C2NC(=O)COCc2ccc(N3CCC(Oc4ccc(OC(F)(F)F)cc4)CC3)cc2)OC(CO)C(O)C1O (centres unmarked) |  |  | H37Rv |  |  | > 50 µg/mL |
| C#CCN(Cc1ccc2nc(N)nc(N)c2c1)c1ccc(C(=O)N[C@@H](CCC(=O)O)C(=O)O)cc1 |  |  | pptT knockdown with ATc |  |  | 3.7 µM |
| Cc1ccc2nc(C)c(C(=O)NCc3ccc(C(F)(F)F)cc3)n2c1 |  | low oxygen recovery | H37Rv |  | non-replicating low oxygen | > 10 µM |
| Cc1nc(=O)c2cc(CN(C)c3cccc(C(=O)N[C@@]4(C(=O)O)CCC[C@H](C(=O)O)C4)c3)ccc2[nH]1 |  |  | pptT knockdown with ATc |  |  | 26.4 µM |
| CC1=C[C@@]2(C)C(=C(C)[C@H]3[C@@H]4C[C@H](C)C[C@H](C)[C@H]4[C@H]4Oc5ccc(cc5)C[C@]5(O)NC(=O)[C@]6(O[C@H]65)C(=O)[C@@H]2[C@@H]43)[C@H]1C | microbial growth | resazurin | H37RV |  |  | > 100 µM |
| COc1ccc(C(CC(=O)c2cccc(Oc3ccccc3)c2)C(N)=O)cc1 (centres unmarked) | microbial growth | resazurin | H37RV |  |  | > 100 µg/mL |
| C#CCN(Cc1ccc2[nH]c(N)nc(=O)c2c1)c1ccc(C(=O)N[C@@H](CCC(=O)O)C(=O)O)cc1 |  |  | pptT knockdown with ATc |  |  | 76.7 µM |
| O=c1nc(N2CCC(Oc3c(F)cccc3F)CC2)sc2c([N+](=O)[O-])cc(C(F)(F)F)cc12 | microbial growth |  | H37RA |  |  | 0.125 µM |
| CO[C@H]1[C@@H](O)[C@H](n2ccc(=O)[nH]c2=O)O[C@@H]1[C@@H](O[C@H]1OC(C(=O)N[C@H]2N=C(c3ccccc3)c3ccccc3NC2=O)=C[C@H](O)[C@@H]1O)C(N)=O |  | low-oxygen recovery | H37Rv pFCA-luxAB |  | non-replicating | > 100 µg/mL |
| O=C(NC12CC3CC(CC(C3)C1)C2)c1cc2cc(Cl)ccc2[nH]1 | microbial growth | resazurin | H37RV |  |  | 0.47 µM |
| CC(C)c1ccc(C=CC(=O)c2ccc(-n3cccc3)cc2)cc1 | microbial growth | resazurin | H37RV | 7 days |  | 12.5 µg/mL |
| Cc1cc(C)c2cc(C(=O)NC3CCCCCCC3)[nH]c2c1 | microbial growth |  | H37RV |  |  | 0.0039 µg/mL |
| Cc1cc(C2CC2)[nH]c(=O)c1CNC(=O)c1ccc(C(F)(F)F)nc1 | microbial growth | resazurin | H37RV |  |  | > 20 µg/mL |

| Compound | effect on | method | strain | time | setting | MIC |
| --- | --- | --- | --- | --- | --- | --- |
| Cc1ccc2nc(C(F)(F)F)c(C(=O)NCc3cccc(Cl)c3)n2c1 | microbial growth | resazurin | H37RV |  |  | 0.19 µM |
| CC(=O)c1sc(N/N=C/c2c(-c3ccccc3)nc3ncccn23)nc1C |  | MABA | H37Rv ATCC 27294 |  |  | 12.5 µg/mL |
| O=C1C(O)=C(I)C(=O)c2ccccc21 |  | resazurin microplate | H37Rv | 7 days + 24 h |  | > 147 µM |
| COc1ccc2nc(C)cc(OCC(=O)Nc3cc(C)cc(C)c3)c2c1 | microbial growth | resazurin | H37RV |  |  | 0.25 µM |
| Cc1ccc2nc(C)c(C(=O)C(=O)NCc3ccc(N(C)C)cc3)n2c1 |  |  | H37Rv, replicating |  |  | 5 to 14 µM |
| Cc1ccc2nc(C)c(C(=O)NCc3cccs3)n2c1 | microbial growth | resazurin | H37RV |  |  | 0.19 µM |
| CC(C)c1ccc(-c2cc(-c3ccc(-n4cccc4)cc3)nc(N)n2)cc1 | microbial growth | resazurin | H37RV | 7 days |  | 3.12 µg/mL |
| CC(C)=CCNCCOC1C2CC3CC(C2)CC1C3 (centres unmarked) |  |  | H37Rv |  |  | 3.1 µg/mL |
| COc1ccc2nc(C)cc(OCC(=O)Nc3ccccc3OC)c2c1 | microbial growth | resazurin | H37RV |  |  | 0.7 µM |
| O=c1nc(N2CCC(Oc3ccccc3F)CC2)sc2c([N+](=O)[O-])cc(C(F)(F)F)cc12 | microbial growth |  | H37RA |  |  | 0.016 µM |
| COc1ccc(-c2nc3ncccn3c2/C=N/Nc2nc(C)c(C(C)=O)s2)cc1 |  | MABA | H37Rv ATCC 27294 |  |  | 12.5 µg/mL |
| CCc1ccn2c(C(=O)N(C)Cc3ccccc3)c(C)nc2c1 |  |  | H37Rv, replicating |  |  | 16 to 37 µM |
| COC(=O)[C@@H](CCCNC(=O)OC(C)(C)C)NC(=O)c1ccc(NCc2ccc3nc(N)nc(N)c3c2Cl)cc1 |  |  | pptT knockdown with ATc |  |  | < 0.1 µM |
| CCOC(=O)c1cnc(N/N=C/c2c(-c3ccccc3)nc3ncccn23)s1 |  | MABA | H37Rv ATCC 27294 |  |  | 12.5 µg/mL |
| CC(C)=CCC/C(C)=C/CC/C(C)=C/CNCCOC1C2CC3CC(C2)CC1C3 (centres unmarked) |  |  | H37Rv |  |  | 0.39 µg/mL |
| CC1C(=NOCc2cc(-c3ccc(Cl)cc3)no2)C(C)C(c2ccc(Cl)cc2)OC1c1ccc(Cl)cc1 (centres unmarked) | microbial growth | resazurin | H37RV |  |  | 3.12 µg/mL |
| O=c1nc(N2CCC(Oc3ccccc3C(F)(F)F)CC2)sc2c([N+](=O)[O-])cc(C(F)(F)F)cc12 | microbial growth |  | H37RA |  |  | 0.004 µM |
| O=C1c2ccccc2C(=O)N1c1nnc(-c2ccccc2Cl)s1 | microbial growth |  | H37RV |  |  | > 200 µM |
| CCOC(=O)c1sc(N/N=C/c2c(-c3ccc(C#N)cc3)nc3ncccn23)nc1C |  | MABA | H37Rv ATCC 27294 |  |  | 12.5 µg/mL |
| COc1ccccc1C(CC(=O)c1cccc(Oc2ccccc2)c1)C(N)=O (centres unmarked) | microbial growth | resazurin | H37RV |  |  | 50 µg/mL |
| CCOC(=O)/C=C1/SC(N/N=C/c2c(-c3ccc(Cl)cc3)nc3ncccn23)=NC1=O |  | MABA | H37Rv ATCC 27294 |  |  | 25 µg/mL |
| Cc1ccc2nc(C)c(C(=O)NCc3ccccc3)n2c1 |  |  | H37Rv, replicating |  |  | 0.003 to 0.05 µM |
| O=c1nc(N2CCC(Oc3ccccc3Cl)CC2)sc2c([N+](=O)[O-])cc(C(F)(F)F)cc12 | microbial growth |  | H37RA |  |  | 0.031 µM |
| Cc1ccc2nc(C)c(CC(=O)NCc3ccc(N(C)C)cc3)n2c1 |  |  | H37Rv, replicating |  |  | 1 to 3 µM |
| Cc1c(CN2CCN(C)CC2)cc(-c2ccc(Cl)cc2)n1-c1ccc(Cl)cc1 | microbial growth |  | H37RV |  |  | 2 µg/mL |

Some of these lines once more:
| Compound | effect on | method | strain | time | setting | MIC |
| --- | --- | --- | --- | --- | --- | --- |
| Cc1ccc2nc(C(F)(F)F)c(C(=O)NCc3cccc(Cl)c3)n2c1 | microbial growth | resazurin | H37RV |  |  | 0.19 µM |
| O=c1nc(N2CCC(Oc3ccccc3C(F)(F)F)CC2)sc2c([N+](=O)[O-])cc(C(F)(F)F)cc12 | microbial growth |  | H37RA |  |  | 0.004 µM |
| COc1ccc(-c2cc(=O)c3c(O)c(OC)c(O)cc3o2)cc1 | microbial growth |  | ATCC27294 H37RV |  |  | 250 µg/mL |
